Experimental data of several laboratories.
Each numbered part is a random draw from the data of one study; scales do not carry over between parts. Substitutions count along the parent as printed.

Series 1
Target: CCNE2, cyclin fold, Cln2 fusion (human)
Method: yeast growth competition, sequencing
Medium: yeast
Notes: weak parent motif
Baseline: not given
Reading: higher = stronger binding
Measurement: normalised enrichment score
Starting sequence: EXO1 docking peptide (human); KPECGRVQRAIFQ
C4A: 0.259
Q13A: 0.312
F12A: 0.228
R9A: 0.0678
R6A: 0.246
I11A: 0.277

Series 2
Target: ABI1, truncated, D143A, DHFR fusion (Arabidopsis thaliana)
Method: DHFR PCA, deep sequencing
Medium: yeast
Notes: methotrexate growth selection, single substitutions
Together with: (+)-ABA 0.0091 µM
Baseline: wild-type fitted maximum
Reading: higher = stronger binding
Measurement: relative binding score
Starting sequence: PYL1, truncated, DHFR fusion (Arabidopsis thaliana); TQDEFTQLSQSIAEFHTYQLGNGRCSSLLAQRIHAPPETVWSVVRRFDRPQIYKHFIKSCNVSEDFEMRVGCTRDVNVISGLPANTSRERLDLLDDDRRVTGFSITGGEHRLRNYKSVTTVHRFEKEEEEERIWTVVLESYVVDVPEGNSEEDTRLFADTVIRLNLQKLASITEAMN; partner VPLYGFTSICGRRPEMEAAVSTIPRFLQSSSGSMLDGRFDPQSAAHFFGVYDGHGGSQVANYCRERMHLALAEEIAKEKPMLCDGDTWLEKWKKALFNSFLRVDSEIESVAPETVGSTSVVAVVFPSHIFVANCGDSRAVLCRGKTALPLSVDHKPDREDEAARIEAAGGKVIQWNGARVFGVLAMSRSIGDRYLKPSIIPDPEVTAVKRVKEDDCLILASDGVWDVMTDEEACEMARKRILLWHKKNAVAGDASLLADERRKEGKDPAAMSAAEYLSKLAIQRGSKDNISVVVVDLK
A175V: 4.07%
T173R: -1.19%
H34I: 4.62%
E128N: 26.9%
I162A: 1.85%
V40R: -2.07%
L94K: -6.75%
A35V: 2.72%
V121E: -1.7%
S104E: -2.18%
T101M: 76.8%
L8F: 38.8%
D153N: 5.94%
T120K: -2.69%
E129M: 4.52%
E127Q: 50.9%
T39W: -3.09%
L8S: 3.17%
E139V: 5.76%
D48E: 1.27%
Y115K: 11.7%
V142Y: -6.49%
P146L: 28.8%

Series 3
Target: RNA binding protein fox-1 homolog 2, RRM domain, GST-SBP tag (RBFOX2, Homo sapiens, UniProt O43251-10, residues 100-194)
Method: RNA Bind-n-Seq
Molecule type: RNA
Medium: in vitro
Concentration: 365 nM
Notes: natural RNA segment, single round, ends assumed
Baseline: no-protein control
Reading: higher = stronger binding
Measurement: RBNS enrichment (R)
All sequences stand within: GGGAGUUCUACAGUCCGACGAUC … UGGAAUUCUCGGGUGCCAA
Target sequence (chain): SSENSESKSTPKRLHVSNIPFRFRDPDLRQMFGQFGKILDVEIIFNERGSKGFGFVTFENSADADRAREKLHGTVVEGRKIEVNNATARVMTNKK
CCAGGCCCUGGAAUCCUGAGACUCGCGUUUCCUUGGCCAGUGGUAACACAGGACGUGUGUGCGCAUGUGCAAGUGUGGAUGUAUGUGUGUGCGUGUGUUUUGCUCAUUUC: 1.32
CGGUGGGUGGCCGUGGGCCACCUUCCCUGCAAUGGGUGCACACGCGGCUCCCAUCCAGCCCUCUCAGCGUGGGGCUGUGGCUGGUCCUCACUAUUCCCCAGUCUCCCGCU: 0.297
UUAACGCACGCACAGACUUACAUGUCAAGAGUGGACUUUAGACUUUCAUGUGUUAAGUUGCUUGAGUUACACCUUGUGACCCUUCUCCCAUAACAUGGUGUGAGGACGGA: 3.72
ACAAAAAAGCCCCCACCAAUGAGUUCUACGCAUGAAGCUUCCUCCCGCGAGCGCUGCUUGGACUUAUUGGGGAGAGGAGUGGAGGGUUGUGGGUGGCGGGCGUUGGCAGA: 7.96
AAAACCUUCCUGAGGAUCUGGAUUCAGGACCCUCCAUGACUGGCCUAUUUACUGUUUACAGCUGGCCAGUGCAGAGCUGCUGCUCUUUUACCUUUUUAGGCCCCUGUAAC: 0.495
AAUGGUUUUGCUUUGUAUUUUAUAGCUUGUUACCCUUAGGUAGGUAACAUCUUACAUUCUGUUUUCUUCCAGUCUUUGCAGUAUUCACUAGAGGUUCCCUUUGCAUGUUG: 64.6
UUUGCACUGCUCCUUUUUCUUGCCCCACCCCUCCUGAUGGGACAAAAGGGUGAAGAGCUCAAAGAACCCCGACUCCCCCCUCCCCUCCCACCUCAUUGUGUACCAUGAGG: 0.297
UUUGGAAGCAAAAGAUUAUUUUCUCUUAACAAGACUUUUUGUACUGAAAACAAUUUUUUUGAAUCUUUCUUAGCCUAAAAGACCCAUUUUCCUUGGAACAUGUAAGAACU: 0.35

Series 4
Target: UBE2B UBC core domain (UniProt P63146)
UniProt P63146, sequence (whole entry, looked up): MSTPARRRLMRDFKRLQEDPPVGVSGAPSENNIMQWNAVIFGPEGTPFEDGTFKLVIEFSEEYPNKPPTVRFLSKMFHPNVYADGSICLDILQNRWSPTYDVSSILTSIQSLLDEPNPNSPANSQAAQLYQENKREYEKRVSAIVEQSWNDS
Method: yeast two-hybrid
Medium: yeast
Notes: mostly zero background
Baseline: not given
Reading: higher = stronger interaction
Measurement: lacZ reporter activity
B1: TRIM26 RING domain (UniProt Q12899); chain PLRSLEEEVTCSICLDYLRDPVTIDCGHVFCRSCTTDVRPISGSRPVCPLCKKPFKKENIRP
B2: RNF166 RING domain (UniProt Q96A37); chain GDSGLEAQYTCPICLEVYHRPVAIGSCGHTFCGECLQPCLQVPSPLCPLCRLPFDPKKVDK
B3: RNF183 RING domain (UniProt Q96D59); chain EQQGRELEAECPVCWNPFNNTFHTPKMLDCCHSFCVECLAHLSLVTPARRRLLCPLCRQPTVLASGQP
B4: RNF152 RING domain (UniProt Q8N8N0); chain ETLSQDSLLECQICFNYYSPRRRPKLLDCKHTCCSVCLQQMRTSQKDVRCPWCRGVTKLPPGFS
B5: TRIM54 RING domain (UniProt Q9BYV2); chain SMDNLEKQLICPICLEMFSKPVVILPCQHNLCRKCANDVFQASNPLWQSRGSTTVSSGGRFRCPSCRHEVVLDRHGV
B1 (TRIM26 RING domain): 0
MNDVLENELQCIICSEYFIEAVTLNCAHSFCSYCINEWMKRKIECPICRKDIKSKTYSL (RNF8 RING domain (UniProt O76064)): 0
LGTKLEAKYLCSACRNVLRRPFQAQCGHRYCSFCLASILSSGPQNCAACVHEGIYEEGIS (TRAF2 RING domain (UniProt Q12933)): 0
PEELAVNNDDCAICWDSMQAARKLPCGHLFHNSCLRSWLEQDTSCPTCRMSLNIADNNR (AMFR RING domain (UniProt Q9UKV5)): 0
B2 (RNF166 RING domain): 0
AEADPLGRFTCPVCLEVYEKPVQVPCGHVFCSACLQECLKPKKPVCGVCRSALAPGVRAV (RNF114 RING domain (UniProt Q9Y508)): 0
B3 (RNF183 RING domain): 0
FVKTVEDKYKCEKCHLVLCSPKQTECGHRFCESCMAALLSSSSPKCTACQESIVKDKVF (TRAF3 RING domain (UniProt Q13114)): 0
B4 (RNF152 RING domain): 0
QVQSRTKIEECVVCSDKKAAVLFQPCGHMCACENCANLMKKCVQCRAVVERRVPFI (MIB1 RING domain (UniProt Q86YT6)): 0
B5 (TRIM54 RING domain): 0

Some of these lines once more (series 4):
B2 (RNF166 RING domain): 0
MNDVLENELQCIICSEYFIEAVTLNCAHSFCSYCINEWMKRKIECPICRKDIKSKTYSL (RNF8 RING domain (UniProt O76064)): 0
B5 (TRIM54 RING domain): 0
FVKTVEDKYKCEKCHLVLCSPKQTECGHRFCESCMAALLSSSSPKCTACQESIVKDKVF (TRAF3 RING domain (UniProt Q13114)): 0
LGTKLEAKYLCSACRNVLRRPFQAQCGHRYCSFCLASILSSGPQNCAACVHEGIYEEGIS (TRAF2 RING domain (UniProt Q12933)): 0
